Assay results gathered from unrelated publications.
Protocols differ between the studies behind these lines.
Target: Cyclin-dependent kinase 2 homolog (CRK2, Plasmodium falciparum, UniProt P61075)

CNC1C[S+]2CC[S+]3CC[S+](C1)[Ru-4]321([N]=C=S)[n]2c3ccc(OC)cc3c3c4c(c5cc(F)c[n+]1c5c32)C(=O)NC4=O (centres unmarked) has a binding of 99% (KinomeScan; 0.1 µM; reference: control).
C=CC(=O)N1CCc2ccc(-n3c(=O)ccc4cnc5ccc(-c6cnn(C)c6)cc5c43)cc21 has a remaining binding of 94% (KINOMEscan; 1 µM; reference: control).
With Cc1ccc(-c2c(/C=C(\C#N)C(=O)NC(C)C)n(CCCO)c3ncnc(N)c23)cc1 the remaining binding was 100% (cell-free assay, competition with immobilised ligand; 1 µM).
CNC(=O)C1CCN(c2cc(C)c(F)cc2NC(=O)c2ccc(-c3cc(O)ccc3C)c(C)c2)CC1 gave a remaining binding of 97% (binding, competition with immobilised ligand; 1 µM).
With Nc1ncc2c(n1)-c1c([nH]c3ccc(C4=CCOCC4)cc13)CCC2 the remaining binding was 100% (binding, competition with immobilised ligand; 1 µM).
The remaining signal of Cc1cnc2nc1Nc1cccc(c1)COC/C=C/COCc1cc(ccc1OCCN1CCOCC1)N2 is reported as 86% (cell-free assay; 0.1 µM).
CC(C)=CC1OC(C)(C)C2C=C3C(=O)C(Cl)=CC(O)C3C3C(O)C4OC4C(=O)C132 (centres unmarked) gave a remaining binding of 75% (cell-free assay, competition with immobilised ligand; 10 µM).
C=CC(=O)N1CCCC(n2c(=O)c3ncccc3n(Cc3ccc(Oc4ccccc4)cc3)c2=O)C1 (centres unmarked) has a remaining binding of 95% (cell-free assay, competition with immobilised ligand; 1 µM).
With COc1c(Cl)cccc1Nc1c(-c2ccncc2C#C[C@@]2(C)CCCN2C(=O)/C=C/CN(C)C)[nH]c2c1C(=O)NCC2 the remaining binding was 73% (cell-free assay, competition with immobilised ligand; 3 µM).
With COc1cc(Nc2nccc(-c3cnn4nc(OC)ccc34)n2)cc(C(F)(F)F)c1 the remaining binding was 81% (binding, competition with immobilised ligand; 1 µM).
CCN1CCN(Cc2ccc(C(=O)Nc3ccc(C)c(NCc4cnc5[nH]ccc5c4OC)c3)cc2C(F)(F)F)CC1 has a remaining binding of 100% (binding, competition with immobilised ligand; 1 µM).

Some of these lines once more:
With COc1c(Cl)cccc1Nc1c(-c2ccncc2C#C[C@@]2(C)CCCN2C(=O)/C=C/CN(C)C)[nH]c2c1C(=O)NCC2 the remaining binding was 73% (cell-free assay, competition with immobilised ligand; 3 µM).
